Measurements pooled from the literature.
A part holds a random share of what one study measured.

Set 1
Target: Prothrombin, mature alpha-thrombin (F2, Homo sapiens, UniProt P00734)
Method: aptamer microarray, sandwich
Molecule type: DNA with 2'F-ANA
Matrix: in vitro
Concentration: 200 nM
Notes: whole 15-mer aptamer, many near background
Together with: Cy3 exosite-II aptamer, 400 nM
Direction: higher = stronger binding
Sequence: GGTTGGTGTGGTTGG
For `2'F-ANA at 4 7 8 9 10 12 13`, “mean fluorescence intensity” read 131 a.u.
For `2'F-ANA at 1 4 12 13 14 15`, “mean fluorescence intensity” read 55.2 a.u.
Under “mean fluorescence intensity”, `2'F-ANA at 2 3 4 7 9 10 13 14 15` is recorded as 186 a.u.
For `2'F-ANA at 2 3 4 6 10 12 15`, “mean fluorescence intensity” read 276 a.u.
`2'F-ANA at 1 2 7 9 10 11 12 15`: “mean fluorescence intensity” 64.2 a.u.
`2'F-ANA at 1 4 9 12 13`: “mean fluorescence intensity” 158 a.u.
Under “mean fluorescence intensity”, `2'F-ANA at 1 2 3 5 6 7 8 10 11 13 15` is recorded as 54.7 a.u.
`2'F-ANA at 1 4 5 8 9 11 12 14 15`: “mean fluorescence intensity” 58.8 a.u.
`2'F-ANA at 1 2 5 6 7 8 10 11 13 14` — result for “mean fluorescence intensity”: 58.8 a.u.
`2'F-ANA at 2 4 6 12 13 15` — result for “mean fluorescence intensity”: 320 a.u.
`2'F-ANA at 1 2 3 4 6 9 10 11 12 14` — result for “mean fluorescence intensity”: 49.6 a.u.
Under “mean fluorescence intensity”, `2'F-ANA at 5 6 7 8 9 12 13 15` is recorded as 92.5 a.u.
`2'F-ANA at 2 4 5 8 11 12`: “mean fluorescence intensity” 119 a.u.
`2'F-ANA at 1 3 4 6 9 13` — result for “mean fluorescence intensity”: 114 a.u.

Set 2
Target: Protein max, full length (MAX, Homo sapiens, UniProt P61244-2, residues 1-151)
Method: protein-binding microarray
Molecule type: double-stranded DNA, one strand shown
Matrix: in vitro
Concentration: not given
Notes: k-mer, scored over probes, only values ≥0.25
Direction: higher = stronger binding
`CGTGGCAG` gave an E-score of 0.374.
With `CGTGAGAG` the E-score was 0.309.
The E-score of `AACCATGT` is reported as 0.336.
`CATGCGAC` has an E-score of 0.424.
For `CCATCTGC`, the E-score was 0.296.
`CCATGCAA` gave an E-score of 0.325.
`ACGTGAGC` has an E-score of 0.363.
The E-score of `GCATGTTA` is reported as 0.401.
For `CGTGGATA`, the E-score was 0.329.
`ATGCTGGC` gave an E-score of 0.295.
The E-score of `ACGTGCGA` is reported as 0.447.
For `ACATGTAC`, the E-score was 0.344.
`CACGCTAC` has an E-score of 0.4.
`CCATGCTC` has an E-score of 0.403.

Set 3
Target: Phosphate system positive regulatory protein PHO4, full length, GST-tagged (PHO4, Saccharomyces cerevisiae, UniProt P07270, residues 1-312)
Method: competition protein-binding microarray
Molecule type: double-stranded DNA, one strand shown
Matrix: in vitro
Concentration: 2 µM
Notes: whole 60-bp probe, lowest competitor level
Together with: Cbf1 competitor, 0.05 µM
Direction: higher = stronger binding
Residues (chain): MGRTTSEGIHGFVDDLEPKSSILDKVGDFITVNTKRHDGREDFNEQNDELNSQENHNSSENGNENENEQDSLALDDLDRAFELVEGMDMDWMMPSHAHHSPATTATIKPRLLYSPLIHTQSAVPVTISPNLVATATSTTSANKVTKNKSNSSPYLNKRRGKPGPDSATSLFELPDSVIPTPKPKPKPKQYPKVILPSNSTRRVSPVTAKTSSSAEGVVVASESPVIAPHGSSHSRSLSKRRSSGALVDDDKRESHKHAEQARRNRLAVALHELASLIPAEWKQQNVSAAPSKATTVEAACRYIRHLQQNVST
`AAATTACTAAGTTGAACAGTGGGTGACGCCGTATGAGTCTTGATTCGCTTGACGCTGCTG` gave a fluorescence intensity of 3800 a.u.
`TCTGATAGTTCTACCATCGTGGGTAACAACGTATGGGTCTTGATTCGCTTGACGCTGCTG` gave a fluorescence intensity of 9970 a.u.
`CTTCTGTAAATTTGATTGGTGGGTGGACGCGCCCCGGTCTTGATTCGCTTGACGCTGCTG` has a fluorescence intensity of 3770 a.u.
With `GGAGAAGGATTAGATCTCGTGCCGAACGACAGCAAGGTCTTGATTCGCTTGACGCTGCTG` the fluorescence intensity was 10700 a.u.
For `CGTCCTAGTGATTGGTTCGTGGGTGCCATGAGGAAGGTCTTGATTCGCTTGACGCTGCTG`, the fluorescence intensity was 9480 a.u.
For `CTTCTGTAAATTTGCCTTGTGGGTGGACGCGCCCCGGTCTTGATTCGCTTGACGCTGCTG`, the fluorescence intensity was 5290 a.u.
The fluorescence intensity of `TCATACATGTCATTGCACATGAGCATTGTAACCGGTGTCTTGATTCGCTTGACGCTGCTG` is reported as 6820 a.u.

Single results of other studies
For `PhoQ, residues 284 288 289 292 302 303 TVTVVA`, the fold induction was 20.9 (PhoP, residues 12 14 15 18 19 TQAIL (Escherichia coli, UniProt P23836); Sort-seq, measured: YFP reporter; E. coli; PhoQ-PhoP variant library, together with: 10 µM Mg2+; baseline: high Mg2+ state, higher = stronger signaling).

A few entries again (set 2):
`CCATGCAA` gave an E-score of 0.325.
`ACGTGAGC` has an E-score of 0.363.
The E-score of `GCATGTTA` is reported as 0.401.
For `CGTGGATA`, the E-score was 0.329.
